Results gathered from unrelated publications.
Each line is one published result; not all experiments were run side by side. “And” joins repeats or separate records; there may be more than shown. Numbers after ± are the reported error.

| Compound | test | system | conditions | how to read | endpoint | value |
| --- | --- | --- | --- | --- | --- | --- |
| NC(=O)[C@H]1CCN(c2ncnc(N)c2F)C[C@@H]1N1CCC[C@@H](Nc2cc(Cl)cc(C(F)(F)F)c2)C1=O |  | B-cell malignancy patients | oral, 82 mg twice daily, dose |  | grade ≥3 platelet decrease | 14% |
| CC[C@H](C)[C@H](NC(=O)[C@H](Cc1ccccc1)NC(=O)[C@H](CCC(=O)O)NC(=O)[C@H](CCCNC(=N)N)NC(=O)[C@H](C)NC(=O)[C@H](C)NC(=O)[C@H](CCC(N)=O)NC(=O)[C@H](CCC(=O)O)NC(=O)[C@H](CCC(=O)O)NC(=O)[C@H](CC(C)C)NC(=O)[C@H](Cc1ccc(O)cc1)NC(=O)[C@H](CO)NC(=O)[C@H](CO)NC(=O)[C@@H](NC(=O)[C@H](CC(=O)O)NC(=O)[C@H](CO)NC(=O)[C@@H](NC(=O)[C@H](Cc1ccccc1)NC(=O)[C@@H](NC(=O)CNC(=O)[C@H](CCC(=O)O)NC(=O)[C@H](C)NC(=O)CCc1cnc[nH]1)[C@@H](C)O)[C@@H](C)O)C(C)C)C(=O)N[C@@H](C)C(=O)N[C@@H](Cc1c[nH]c2ccccc12)C(=O)N[C@@H](CC(C)C)C(=O)N[C@H](C(=O)N[C@@H](CCCNC(=N)N)C(=O)NCC(=O)N[C@@H](CCCNC(=N)N)C(=O)N[C@@H](CCCCNC(=O)COCCOCCNC(=O)COCCOCCNC(=O)CC[C@H](NC(=O)CCCCCCCCCCCCCCCCC(=O)O)C(=O)O)C(=O)NCC(=O)NCC(=O)N[C@@H](CO)C(=O)N[C@@H](CCCCNC(=O)[C@H](CCCCNc1c(NCCCCCN(O)C(=O)CCC(=O)NCCCCCN(O)C(=O)CCC(=O)NCCCCCN(O)C(C)=O)c(=O)c1=O)Nc1c(NCCCCCN(O)C(=O)CCC(=O)NCCCCCN(O)C(=O)CCC(=O)NCCCCCN(O)C(C)=O)c(=O)c1=O)C(=O)O)C(C)C [zirconium-89 labelled] | ex vivo gamma counting | Sprague-Dawley rat, male, muscle | intravenous, 1 nmol, 24 h |  | tissue uptake | 0.067 %ID/g and 0.071 %ID/g and 0.068 %ID/g and 0.083 %ID/g and 0.081 %ID/g |
| Clc1ccc(-c2cc(Cl)c(Cl)cc2Cl)cc1Cl |  | cow whole milk | 200 nM | reference: milk fat over skim milk | milk fat partition ratio | 368 |
| Clc1ccc(Cl)c(-c2cc(Cl)ccc2Cl)c1 |  | Sprague Dawley rat, spleen | intraperitoneal, 100 mg/kg |  | organ weight | 0.47 g |
| CCCCCOc1ccc(-c2ccc(-c3ccc(C(=O)N[C@H]4C[C@@H](O)[C@@H](OCC[N+](C)(C)C)NC(=O)[C@@H]5[C@@H](O)[C@@H](C)CN5C(=O)[C@H]([C@@H](C)O)NC(=O)[C@H]([C@H](O)[C@@H](O)c5ccc(O)cc5)NC(=O)[C@@H]5C[C@@H](O)CN5C(=O)[C@H]([C@@H](C)O)NC4=O)cc3)cc2)cc1 |  | adult patients not in ICU, plasma | intravenous, 400 mg loading dose, after first dose, geometric mean |  | Cmax | 17600 ng/mL |
| CCNCCCNC/C=C\CNCCCNCC |  | human, advanced solid tumours | intravenous, dose not given | reference: patients | serious TEAE, nausea | 6.5% |
| O=S(=O)(Nc1ccccc1)c1ccc(NC(=S)Nc2ccccc2)cc1 | item: MO% | female mouse, blood | oral, 5 mg/kg daily, 14 days |  | blood cell fraction | 4.24% |
| COc1cc2c(Oc3ccc4[nH]c(C)cc4c3F)ccnc2cc1OCC1(N)CC1 |  | paediatric recurrent refractory sarcoma | 10 mg |  | grade 3 Rash | 0% |
| CO[C@H]1C[C@@H]2CC[C@@H](C)[C@@](O)(O2)C(=O)C(=O)N2CCCC[C@H]2C(=O)O[C@H]([C@H](C)C[C@@H]2CC[C@@H](OC(=O)NCCOCCOCCOCCOCCOCCOCCOCCOCCC(=O)N3CCc4cc(Cn5nc(-c6ccc7oc(N)nc7c6)c6c(N)ncnc65)ccc4C3)[C@H](OC)C2)C[C@@H](O)[C@H](C)/C=C(\C)[C@@H](O)[C@@H](OC)C(=O)[C@H](C)C[C@H](C)/C=C/C=C/C=C/1C |  | patients with advanced solid tumours | intravenous, 10 mg weekly, any grade |  | diarrhoea incidence | 50% |
| C=C(CN(C(=O)c1c(C(F)F)nn(C)c1F)C1CC1)c1ccc(Cl)cc1Cl | static acute toxicity test | zebrafish (Brachydanio rerio) | 0.482 mg a.i./L, 96 h |  | mortality | 0% |
| C[C@@H](NC(=O)N1C(=O)[C@H](Cc2ccnc(N)c2)[C@H]1C(=O)O)C1CCCCC1 |  | healthy Chinese adult volunteers | continuous intravenous infusion, dose not given, 5.0 days, CTCAE 5.0, all doses |  | urine leukocyte esterase positive | 15% |
| C[C@H]1CN(C(=O)CC#N)[C@]12CCN(c1ncnc3[nH]ccc13)C2 |  | dog female | oral, 0.6 mg/kg repeated daily, 9 months, repeated-dose toxicity study |  | AUC at NOAEL | 1510 ng·h/mL |
| Cn1c(-c2ccc(C(N)=O)cc2F)nnc1C(C)(C)Oc1c(F)cc(Cl)cc1F |  | human | oral, 60 mg, single ascending dose |  | vessel puncture site pain | 0% |
| CCc1ccc(CC/C=C/c2ccc3c(c2)C(=O)CC3)cc1 |  | Sprague-Dawley rat, female, serum | oral, 120 mg/kg/day, 14 days |  | total bilirubin | 1.47 µM |
| O=C(Nc1ccccc1)C1CCN(C(=O)Oc2cccnc2)CC1 | psychotropic effects VAS | healthy women | 60 mg | reference: pre-dose baseline, direction not given | change in Body score | 3.4 |
| C=CCNc1c(O)cc2c(O)c1C[C@@H](C)C[C@H](OC)[C@H](O)[C@@H](C)/C=C(\C)[C@H](OC(N)=O)[C@@H](OC)/C=C\C=C(/C)C(=O)N2 |  | unresectable or metastatic STS, GIST, other | intravenous, 225 mg/m^2 |  | patients with back pain TEAE | 33% |
| C=CC(=O)N1CC[C@H](n2nc(C#Cc3cc(OC)cc(OC)c3)c3c(N)ncnc32)C1 |  | human patients, serum | oral, dose not given, QD, before phosphate binder start, together with: phosphate binder for ≥2 cycles |  | serum phosphate, median | 5.2 mg/dL |
| C[C@]1(CO)Cc2ncn(-c3ccc(C#N)c(Cl)c3)c2C(=O)O1 |  | human, plasma | oral, 10 mg single dose, fasted |  | AUC(0-inf) adjusted geometric mean | 2.33 µM·h |

| Compound | test | system | conditions | how to read | endpoint | value |
| --- | --- | --- | --- | --- | --- | --- |
| CC(C)C[C@H](NC(=O)[C@@H](NC(=O)[C@H](CCCNC(=N)N)NC(=O)[C@H](CCC(N)=O)NC(=O)[C@H](Cc1ccccc1)NC(=O)[C@H](Cc1ccc(O)cc1)NC(=O)[C@H](CC(N)=O)NC(=O)[C@H](Cc1c[nH]c2ccccc12)NC(=O)[C@@H](NC(=O)[C@H](CCCNC(=N)N)NC(=O)[C@H](CCCCN)NC(=O)[C@@H](N)Cc1ccccc1)C(C)C)C(C)C)C(=O)N[C@H](C(=O)N[C@@H](CCCCN)C(=O)N[C@@H](CCCCN)C(=O)N[C@@H](Cc1ccc(O)cc1)C(=O)N[C@@H](C)C(N)=O)C(C)C | reversed-phase UPLC | C18 column, TFA |  |  | elution acetonitrile content | 45.1% |
| CCN1[C@@H](C(=O)NC23CCC(C(=O)O)(CC2)CC3)[C@H](c2cccc(Cl)c2F)[C@]2(C(=O)Nc3cc(Cl)ccc32)C12CCCCC2 |  | patients with advanced solid tumours | oral, 100 mg |  | anorexia incidence | 0% |
| COc1ccc2nc3cc(Cl)ccc3c(Nc3cc(CN4CCCC4)c(O)c(CN4CCCC4)c3)c2n1 |  | mouse, blood | intraperitoneal, 28 mg/kg |  | basophil count | 0.14 10⁹/L |
| [O-][S+]1CCc2nc(N3CCC(c4ncc(Cl)cn4)CC3)nc(NC3(CO)CCC3)c21 (stereo not drawn) | item: mean | idiopathic pulmonary fibrosis patients, urine | 18 mg twice daily, at last treatment |  | urine pH | 5.6 |
| COc1ncccc1-c1cnn2ccc(N3CCN(C(=O)OC(C)C)CC3)nc12 |  | mouse, SNL model, brain | oral, 60 mg/kg, 120 min |  | drug concentration | 52 µM |
| CC(=O)c1c(C)c2cnc(Nc3ccc(C4CCN(CCS(C)(=O)=O)CC4)cn3)nc2n(C2CCCC2)c1=O |  | human patients, plasma | oral, 75 mg twice daily, day 21 multiple doses, together with: fulvestrant |  | Cmax | 192 ng/mL |
| O=C(Nc1ccccc1)C1CCN(C(=O)Oc2cccnc2)CC1 | item: Nausea | healthy female human | concentration not given, all doses pooled |  | adverse event incidence | 13% |
| CC1(C)C(=O)N(c2ccc(C#N)c(C(F)(F)F)c2)C(=S)N1c1ccc(C(N)=O)c(F)c1 | population PK base model | human |  |  | clearance | 0.289 L/h |
| C[C@H](N)Cn1ncc2ccc3c(c21)CCCO3.Cl |  | 1-octanol/phosphate buffer | pH 7.4 |  | distribution coefficient | 4.39 |
| CCCCCCCCCCCCCCCC(=O)N[C@@H](CCC(=O)NCCCC[C@H](NC(=O)[C@H](CC(=O)O)NC(=O)[C@H](CO)NC(=O)[C@@H](NC(=O)[C@H](Cc1ccccc1)NC(=O)[C@@H](NC(=O)CNC(=O)[C@H](CCC(N)=O)NC(=O)[C@H](CO)NC(=O)[C@@H](N)Cc1c[nH]cn1)[C@@H](C)O)[C@@H](C)O)C(=O)N[C@@H](CO)C(=O)N[C@@H](CCC(=O)O)C(=O)N[C@@H](Cc1ccc(O)cc1)C(=O)N[C@@H](CC(C)C)C(=O)N[C@@H](CC(=O)O)C(=O)N[C@@H](CO)C(=O)N[C@@H](CCC(=O)O)C(=O)N[C@@H](CCCNC(=N)N)C(=O)N[C@@H](C)C(=O)N[C@@H](CCCNC(=N)N)C(=O)N[C@@H](CC(=O)O)C(=O)N[C@@H](Cc1ccccc1)C(=O)N[C@H](C(=O)N[C@@H](C)C(=O)N[C@@H](Cc1c[nH]c2ccccc12)C(=O)N[C@@H](CC(C)C)C(=O)N[C@@H](CCC(=O)O)C(=O)N[C@@H](C)C(=O)NCC(=O)NCC(=O)O)C(C)C)C(=O)O | item: Nausea | humans CrCl 30 to 45 mL/min | subcutaneous, 100 µg single dose |  | treatment-related adverse events | 27.3% |
| O=C(O)CCCOc1ccc(F)cc1-c1cc(-c2ccccc2C(F)(F)F)n(-c2ccccc2)n1 |  | Crl:CD(SD) rats, female, blood | iv, 25 µg/kg, 14 days |  | mean corpuscular volume | 54.4 fL |
| [Cl][212Pb][Cl] |  | athymic mice, C4-2 xenograft, lungs | intravenous, 2 h, 212Pb-labelled |  | tissue uptake | 3.28 ± 0.2 %ID/g |
| CC(C)C[C@H](NC(=O)[C@H](CCCCN)NC(=O)OCC1c2ccccc2-c2ccccc21)C(=O)N[C@H](C(=O)N[C@@H](Cc1ccccc1)C(=O)N[C@@H](Cc1ccccc1)C(=O)N[C@@H](CCCCN)C(=O)NCC(=O)N[C@@H](Cc1ccccc1)C(=O)N[C@@H](C)C(=O)N[C@@H](Cc1c[nH]c2ccccc12)C(=O)N[C@@H](CC(N)=O)C(=O)N[C@H](C(=O)N[C@H]1CSSC[C@@H](C(=O)N[C@@H](Cc2c[nH]cn2)C(=O)N[C@@H](CCCNC(=N)N)C(=O)N[C@@H](CCCNC(=N)N)C(=O)N[C@@H](C)C(=O)N[C@@H](CC(N)=O)C(N)=O)NC(=O)[C@H](C(C)C)NC(=O)[C@H](CCCNC(=N)N)NC(=O)[C@H](C(C)C)NC(=O)CNC(=O)[C@H](CC(N)=O)NC(=O)[C@H](CCCNC(=N)N)NC(=O)[C@H](Cc2ccc(O)cc2)NC(=O)[C@H](C(C)C)NC1=O)C(C)C)C(C)C | HPLC | mouse mammary gland homogenate | 2560 µM, 4.00 h, 37 °C, 50 mg/mL tissue |  | remaining peptide | 79.9% and 84.7% and 81.8% |
| COc1ccc(-c2c(-c3ccc(C#N)c(F)c3)nc(N3CCC(N)CC3)n(C)c2=O)cc1F | item: Urticaria | human patients | oral, dose not given, dose escalation, NG |  | serious adverse event incidence | 2% |
| Cn1cc(-c2nc(N[C@@H]3CCCC[C@@H]3N)c(F)c3c2C(=O)NC3)cn1 | item: Epistaxis | patients with relapsed or refractory AML | oral, dose not given, all doses |  | hemorrhagic adverse events | 26% |
| CN(N=O)C(N)=O |  |  | room temperature |  | water solubility | 1.4 % w/v |
| CC[C@H](C)CCCCC(=O)N[C@@H](CCN)C(=O)N[C@H](C(=O)N[C@@H](CCN)C(=O)N[C@H]1CCNC(=O)[C@H]([C@@H](C)O)NC(=O)[C@H](CCN)NC(=O)[C@H](CCN)NC(=O)[C@H](CC(C)C)NC(=O)[C@@H](CC(C)C)NC(=O)[C@H](CCN)NC1=O)[C@@H](C)O | dialysis | porcine stomach mucin | 4 h, 37 °C, drug alone | reference: without mucin | efflux with mucin | 20% |
| CN1CCN(S(=O)(=O)c2cc([N+](=O)[O-])ccc2N(CCOS(C)(=O)=O)CCOS(C)(=O)=O)CC1 |  | NOD/SCID mouse, naive, blood | intraperitoneal, 18.8 mg/kg, week 1 |  | hemoglobin | 160 g/L and 172 g/L and 154 g/L |
